Results gathered from unrelated publications.
Compare with care: the assays were run in different laboratories. ± gives the spread as reported.
Cell line: HCT-116

| SMILES | effect on | method | concentration | time | reference | quantity | value |
| --- | --- | --- | --- | --- | --- | --- | --- |
| CCNC(=S)NN=Cc1c2ccccc2cc2ccccc12.Cc1ccc(C(C)C)cc1.[Cl-].[Cl-].[Ru+2] | cytotoxicity | MTS |  | 72 h |  | IC50 | 224 ± 7 µM |
| CCN(C(=O)c1cc(F)ccc1Oc1nncnc1N1CCC2(C1)CN([C@H](CCCN(C)CCOC)C(C)C)C2)C(C)C | cell growth or viability |  |  | 72 h |  | GI50 | > 10 µM |
| CCn1c(-c2ccccc2)cs/c1=N/N=C(\C)c1c(O)c2ccccc2oc1=O | cell growth | MTT |  |  | IC50 BJ-1 over HCT-116 | selectivity index | > 10.1 |
| O=c1c(-c2cnn(-c3ccccc3)c2)c(C(F)(F)F)oc2c(O)c(O)ccc12 | apoptosis | annexin V flow cytometry |  |  |  | EC50 | ~58 µM |
| [BH3-][P+]1(c2ccccc2)CCC(=O)CC1 |  | MTT |  | 72 h | IC50 HaCaT over IC50 HCT-116 | selectivity index | 1 |
| CSC(=NN=C(C)c1ccc(S(=O)(=O)N2CCC(C)CC2)cc1)N(C)C |  | flow cytometry | 3.66 µM (IC50) | 72 h |  | cells in G2/M phase | 22.2% |
| CN1C(=O)/C(=N\c2ccc(Cl)cc2Br)c2ccccc21 | cell growth or viability | MTT |  | 48 h |  | IC50 | 28.3 µM |
| [BH3-][P+]1(c2ccccc2)CCCCC1 |  | trypan blue | IC50 | 72 h | untreated | reduction of cell number | 16% |
| CSC(=S)N/N=C(\C)c1ccc(S(=O)(=O)N2CCC(C)CC2)cc1 |  | flow cytometry | 3.66 µM (IC50) | 72 h |  | cells in S phase | 31.2% |
| [BH3-][P@+]1(c2ccccc2)CC[C@@H](O)CC1 |  | MTT |  | 72 h | IC50 HaCaT over IC50 HCT-116 | selectivity index | 1 |
| CCNC(=S)N/N=C(\C)c1c(O)c2ccccc2oc1=O | cell growth | MTT |  |  | IC50 BJ-1 over HCT-116 | selectivity index | > 5.62 |
| COc1ccc(NC(=O)c2c(Nc3ccccc3)sc(C(=O)N/N=C/c3ccc(OC)c(OC)c3)c2NC(C)=O)cc1 | cell growth or viability | SRB | 1 nM | 48 h |  | viability | 103% |
| CC(=NN=c1sc(C(=O)c2ccccc2)nn1-c1ccccc1)c1ccc(S(=O)(=O)N2CCC(C)CC2)cc1 |  | flow cytometry | 3.66 µM (IC50) | 72 h |  | cells in G2/M phase | 22.7% |
| O=[P@]1(c2ccccc2)CC[C@@H](O)CC1 |  | MTT |  | 72 h | IC50 HaCaT over IC50 HCT-116 | selectivity index | 1 |
| C1=[N+]2CCCC[N+]3=Cc4ccc5[n]4[Au-]23[n]2c1ccc2-c1nc2ccccc2nc1-5.F[P-](F)(F)(F)(F)F |  | NCI60 five-dose screen |  |  |  | TGI | 4.49 -log M |
| C/C(=N\Nc1ncnc2sc3c(c12)CCCC3)c1cc(O)ccc1O |  |  |  | 7 d |  | colony formation | decreased |
| C/C(=N\N=C1/NC(=O)CS1)c1c(O)c2ccccc2oc1=O | cell growth | MTT |  |  | IC50 BJ-1 over HCT-116 | selectivity index | > 10.5 |
| O=C1CCP(=O)(c2ccccc2)CC1 |  | MTT |  | 72 h | IC50 HaCaT over IC50 HCT-116 | selectivity index | 1 |
| CCCC(CCC)C(=O)OCc1cn(-c2cc3ccccc3oc2=O)nn1 |  | NCI60 single-dose screen | 10 µM |  |  | growth percentage | 91.5% |

Excerpt of the above:
| SMILES | effect on | method | concentration | time | reference | quantity | value |
| --- | --- | --- | --- | --- | --- | --- | --- |
| CCNC(=S)N/N=C(\C)c1c(O)c2ccccc2oc1=O | cell growth | MTT |  |  | IC50 BJ-1 over HCT-116 | selectivity index | > 5.62 |
